Published values from different studies.
Protocols differ between the studies behind these lines. Numbers after ± are the reported error.
UCHL1: Ubiquitin carboxyl-terminal hydrolase isozyme L1 (UCHL1, Homo sapiens, UniProt P09936)
Sequence of UniProt P09936 (whole entry, looked up): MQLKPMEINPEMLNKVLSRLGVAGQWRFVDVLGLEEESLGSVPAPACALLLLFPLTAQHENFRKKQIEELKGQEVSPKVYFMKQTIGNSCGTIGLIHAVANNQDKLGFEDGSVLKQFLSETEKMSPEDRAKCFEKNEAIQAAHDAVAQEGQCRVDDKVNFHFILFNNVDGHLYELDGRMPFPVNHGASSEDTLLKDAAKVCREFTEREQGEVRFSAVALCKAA

Cc1ccc(Sc2ccccc2N2CCNCC2)c(C)c1 — mean half-life (healthy male humans fasted, plasma; oral, 10 mg single): 67.6 h
O=C([O-])CN(CCN(CC(=O)[O-])Cc1cc(CCC(=O)NCCCCCC(=O)NCCCC[C@H](NC(=O)N[C@@H](CCC(=O)O)C(=O)O)C(=O)O)ccc1[O-])Cc1cc(CCC(=O)O)ccc1[O-].[68Ga+3].[OH3+] — mean SUVmax (PET/CT; human, metastatic prostate cancer, matched lesions): 17.9 ± 12.1
CCCCOc1ccc([C@H]2CC[C@H](CCC)CC2)c(F)c1F — mean serum concentration (human mother-newborn pairs, maternal serum): 7.63 ng/mL
C=CC(=O)N(C)CCOc1c(N)ncnc1-c1cc(F)cc(NC(=O)c2ccc(C3CC3)cc2F)c1C — mean residence time (human, whole blood; oral, 600 mg, single ascending dose): 5.8 h
CCCCc1ccc(-c2ccc(C#N)cc2)cc1 — mean serum concentration (human mother-newborn pairs, female fetuses, cord serum): 0.25 ng/mL
Cc1ccc(O)c(-n2nc3ccccc3n2)c1 — mean daily dermal uptake (exposure assessment; human, age 16-21 years; foundation): 92.7 ng/kg body weight/day
C[C@H](CCC(=O)NCC(=O)O)[C@H]1CC[C@H]2[C@@H]3CC[C@@H]4C[C@H](OS(=O)(=O)O)CC[C@]4(C)[C@H]3CC[C@]12C — mean daily plasma concentration (human, plasma; control): 832 ± 171 nM
O=S(=O)(O)Oc1cc(O)cc(/C=C/c2ccc(O)cc2)c1 — mean concentration (human, plasma): 2060 nM
Cn1cc(-c2cn3nccc3c(-c3cnn([C@]4(CC#N)C[C@@H](C#N)C4)c3)n2)cn1 — mean residence time (healthy human fasted; 1600 mg single dose): 9.4 h
O=C(O)CCCCCCCCC(=O)O — mean daily plasma concentration (human, plasma; control): 25.4 ± 5.3 nM
C[C@@H](O)CCOC(=O)C[C@@H](C)O — mean arterial pressure (human; oral drink, dose not given, 60 min post dose, mean): 80 mmHg
C=CCNC(=O)C(C#N)=Cc1ccccc1[N+](=O)[O-] — labelling (UCHL1; covalent, intact protein LC-MS; 12.5 µM): 5.79%
O=C(O)CCCCCCCCCCCCCCCCC(=O)O — mean daily plasma concentration (human, plasma; control): 79.5 ± 5.9 nM
CCCC1CCC(c2ccc(-c3ccc(F)c(F)c3)cc2)CC1 (centres unmarked) — mean serum concentration (human mother-newborn pairs, cord serum): 1.15 ng/mL
N#CC(=Cc1ccc([N+](=O)[O-])c(Cl)c1)C(=O)NCc1ccccc1 — labelling (UCHL1; covalent, intact protein LC-MS; 12.5 µM): 44%
CCCCc1ccc(C#Cc2ccc(OCC)cc2)cc1 — mean serum concentration (human mother-newborn pairs, female fetuses, cord serum): 0.35 ng/mL
CCNCCCNC/C=C\CNCCCNCC — mean residence time (LC-MS/MS; human cancer patients, plasma; intravenous infusion 60 min, 150 mg, median, cycle 1): 1.15 h
Cn1cnc2c(F)c(Nc3ccc(Br)cc3Cl)c(C(=O)NOCCO)cc21 — mean transit time (population PK model; human, plasma; oral, transit compartment absorption model, fasted): 0.76 h
CN1CC[C@@H](c2c(O)cc(O)c3c(=O)cc(-c4ccc(C(F)(F)F)cc4Cl)oc23)[C@@H]1CO — mean steady-state Ctrough (human, plasma; oral, 200 mg once daily, cycle 1): > 450 ng/mL
CCCOc1ccc(-c2ccc(C#N)cc2)cc1 — mean serum concentration (human mother-newborn pairs, female, maternal serum): 0.73 ng/mL
CC(C)n1c(/C=C/C(O)CC(O)CC(=O)O)c(-c2ccc(F)cc2)c2ccccc21 (centres unmarked) — mean residence time (human; oral, 20 mg, alone, control phase): 3.43 ± 1.72 h
CCCCCc1ccc(C(=O)Oc2ccc(C#N)c(F)c2)cc1 — mean serum concentration (human mother-newborn pairs, female fetuses, cord serum): 0.38 ng/mL
C[C@H](CCC(=O)NCC(=O)O)[C@H]1CC[C@H]2[C@@H]3[C@H](O)C[C@@H]4C[C@H](O)CC[C@]4(C)[C@H]3CC[C@]12C — mean daily plasma concentration (human, plasma; control): 589 ± 66 nM

A few entries again:
CN1CC[C@@H](c2c(O)cc(O)c3c(=O)cc(-c4ccc(C(F)(F)F)cc4Cl)oc23)[C@@H]1CO — mean steady-state Ctrough (human, plasma; oral, 200 mg once daily, cycle 1): > 450 ng/mL
O=C(O)CCCCCCCCC(=O)O — mean daily plasma concentration (human, plasma; control): 25.4 ± 5.3 nM
Cc1ccc(Sc2ccccc2N2CCNCC2)c(C)c1 — mean half-life (healthy male humans fasted, plasma; oral, 10 mg single): 67.6 h
